Measurements collected from several papers.
A part holds a random share of what one study measured.
Chain of UniProt P23443 (whole entry, looked up): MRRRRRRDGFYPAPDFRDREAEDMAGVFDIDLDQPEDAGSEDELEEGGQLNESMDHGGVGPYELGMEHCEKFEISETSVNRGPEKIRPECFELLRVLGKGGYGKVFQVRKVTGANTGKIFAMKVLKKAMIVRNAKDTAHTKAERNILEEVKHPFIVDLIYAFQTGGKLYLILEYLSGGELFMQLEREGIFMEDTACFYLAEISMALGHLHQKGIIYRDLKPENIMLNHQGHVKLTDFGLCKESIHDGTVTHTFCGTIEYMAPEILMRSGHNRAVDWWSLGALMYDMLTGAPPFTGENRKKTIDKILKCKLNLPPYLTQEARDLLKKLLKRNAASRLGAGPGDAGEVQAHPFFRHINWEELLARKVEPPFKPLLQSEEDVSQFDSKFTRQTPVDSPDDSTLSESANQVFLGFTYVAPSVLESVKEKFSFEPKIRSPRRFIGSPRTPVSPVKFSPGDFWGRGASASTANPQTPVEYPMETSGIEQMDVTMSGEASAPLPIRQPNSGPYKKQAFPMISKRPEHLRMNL

Block 1 — technique: protein-binding microarray; molecule type: double-stranded DNA, one strand shown; matrix: in vitro; tested at: 2540 nM top; notes: 60-bp whole probe; with: salmon DNA 0.4 mg/ml; relative to: random background probes; reading: higher = stronger binding; all sequences stand within: GCCTAGCAC … GTCTTGATTCGCTTGACGCTGCTG
Target: Interferon regulatory factor 3, full length, phosphomimetic (IRF3, Homo sapiens, UniProt Q14653, residues 1-427, S386D/S396D/S398D/S402D/T404D/S405D)
Construct (chain): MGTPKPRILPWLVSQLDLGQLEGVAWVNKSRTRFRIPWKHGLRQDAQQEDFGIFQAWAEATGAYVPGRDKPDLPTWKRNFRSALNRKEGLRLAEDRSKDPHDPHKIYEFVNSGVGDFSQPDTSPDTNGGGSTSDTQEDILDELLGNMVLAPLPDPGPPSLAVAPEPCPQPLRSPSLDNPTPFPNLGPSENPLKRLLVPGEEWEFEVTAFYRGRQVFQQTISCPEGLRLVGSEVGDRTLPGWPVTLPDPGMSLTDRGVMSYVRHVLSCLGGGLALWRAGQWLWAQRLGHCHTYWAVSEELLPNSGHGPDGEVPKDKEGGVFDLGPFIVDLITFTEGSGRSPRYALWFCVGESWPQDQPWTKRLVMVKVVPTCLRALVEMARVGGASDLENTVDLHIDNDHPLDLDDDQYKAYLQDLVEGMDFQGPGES
| Strand | fitted relative affinity [z-score] |
| --- | --- |
| TAGACCTAGAAAGAAACCACGTGCTAG | 0.0248 |
| ATAGGTATCGGGTTTCGGTTAGTGCTA | 4.27 |
| TTAGATTTCTGACTGGATTAGTGCTAG | 0.372 |
| TTAGATTTCAGTTTCGATGAGTGCTAG | 4.95 |
| TTAGATTTCGGGACTGAATTAGTGCTA | 1.82 |
| GACGGATTCGGACTGGGGACGTGCTAG | 0.698 |
| TTAGGCTTCGGGACTGGGTTAGTGCTA | -1 |
| GACAGTATCGGTCTCGGGACGTGCTAG | 4.73 |

Block 2 — technique: RNAcompete; molecule type: RNA; matrix: in vitro; tested at: 20 nM; notes: 7-mer, probes averaged, single round; relative to: mean of 7-mers; reading: higher = stronger binding
Target: PABPC1L2, full length, GST fusion (mouse, UniProt A0ABA7IW68)
Target sequence (chain): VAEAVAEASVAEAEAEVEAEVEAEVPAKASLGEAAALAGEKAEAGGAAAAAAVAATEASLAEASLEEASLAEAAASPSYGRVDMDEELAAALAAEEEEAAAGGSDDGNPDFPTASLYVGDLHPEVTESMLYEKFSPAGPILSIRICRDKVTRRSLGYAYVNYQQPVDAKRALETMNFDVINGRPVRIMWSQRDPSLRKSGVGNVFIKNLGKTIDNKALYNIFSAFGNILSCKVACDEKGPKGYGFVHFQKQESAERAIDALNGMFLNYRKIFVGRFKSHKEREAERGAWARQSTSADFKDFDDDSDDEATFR
| Strand | 7-mer Z-score |
| --- | --- |
| UUCAGUG | -0.271 |
| CUGGACU | -0.115 |
| UGCAAUU | -0.191 |
| CCUGCGC | -0.336 |
| AGAUCGU | -0.443 |
| CUCAGUC | -0.215 |
| GGCACUU | -0.0283 |
| GUGUGUG | -0.342 |

Single results of other studies — H2BC9: H2BC9 (Homo sapiens, UniProt Q93079)
| Substance | target or system | assay | test system | conditions | scale | measurement | value |
| --- | --- | --- | --- | --- | --- | --- | --- |
| H2AC7 (Homo sapiens, UniProt P20671) | H2BC9 | cross-linking MS |  | hits only |  | interaction screen | cross-linked |
| CS(=O)(=O)CCNCc1ccc(-c2ccc3ncnc(Nc4ccc(OCc5cccc(F)c5)c(Cl)c4)c3c2)o1 | RPS6KB1 (Homo sapiens, UniProt P23443) | enzyme activity, inhibitor |  | 0.5 µM | relative to: control | remaining activity | 95.7% |
| EIF4A3 (Homo sapiens, UniProt P38919) | CCDC9 (Homo sapiens, UniProt Q9Y3X0) | cross-linking MS | cell fractions | with: DSSO |  | cross-linked residues | K19 to K284 |
| HSPA5 (Homo sapiens, UniProt P11021) | MANF (Homo sapiens, UniProt P55145) | cross-linking MS | cells | with: BSPNO |  | cross-linked residues | K185 to K163 |
| TOP2A (Homo sapiens, UniProt P11388) | H2BC9 | cross-linking MS |  | hits only |  | interaction screen | cross-linked |
| BMS1 (Homo sapiens, UniProt Q14692) | FSAF1 (Homo sapiens, UniProt Q8NDD1) | cross-linking MS | cell fractions | with: DSSO |  | cross-linked residues | K1265 to K202 |

Some of these lines once more (block 1):
| Strand | fitted relative affinity [z-score] |
| --- | --- |
| GACGGATTCGGACTGGGGACGTGCTAG | 0.698 |
| TTAGATTTCTGACTGGATTAGTGCTAG | 0.372 |
| TAGACCTAGAAAGAAACCACGTGCTAG | 0.0248 |
